Results from different studies.
Compare with care: the assays were run in different laboratories. “And” joins repeats or separate records; there may be more than shown. ± gives the spread as reported.

| Structure (SMILES) | tested on | assay | system | setting | how to read | measurement | result |
| --- | --- | --- | --- | --- | --- | --- | --- |
| Cc1cc(Nc2ncc(Cl)c(Nc3ccccc3S(=O)(=O)C(C)C)n2)c(OC(C)C)cc1C1CCNCC1 | NCI-H2228 (EML4-ALK variant 3) | cell viability | – | – | – | Emax | 30.3% |
| CCCCN1C[C@H](O)[C@@H](O)[C@@H](O)[C@H]1CO | sample E patient fibroblasts | Gb3 level lowering, LC-MS/MS, item: Gb3 d18:1/18:0 | – | 216 h | – | IC50 | 41 µM |
| CC/C(=N\NC(=O)C(C)Nc1ccccc1)c1ccc(O)c(C)c1O (centres unmarked) | SK-OV-3 | Western blot, item: phospho-YAP | – | 10 µM, 6 h, 3D gellan gum culture, unit not given | baseline: total YAP | protein level | 0.32 ± 0.19 |
| Cl | human neutrophils | sulfate exchange, substrate, sulfate influx | – | external binding site | – | Km | 25.1 mM |
| C[C@@H]1CN(C(=O)c2ccc(NC(=O)c3cc(O[C@H](C)c4c(Cl)ccc(F)c4Cl)c(N)nn3)cc2)C[C@H](C)N1 | Ba/F3 EML4-ALK variant 1 S1206Y | cell viability | – | – | – | Emax | 100% |
| C=Cc1c2[n-]c(c1C)/C=c1\[n-]/c(c(C)c1C=C)=C\c1[n-]c(c(CCC(=O)O)c1C)/C=c1\[n-]c(c(C)c1CCC(=O)O)=C2.[Sn+4] | SH-SY5Y | RNA-seq, item: TFPI2 mRNA | – | 5 µM, 5 h | baseline: untreated cells | fold change | 2.59 |
| COC(=O)Nc1nc2ccc(C(=O)c3cccs3)cc2[nH]1 | tsFT210 G2-synchronised | flow cytometry | – | 100 nM, 4 h after release at 32 °C | – | G2/M cells | 91.3% |
| Cn1cc(Nc2nccc(-c3ccc4c(c3)CN(C3COC3)CC[C@H]4NC(=O)c3cn(C(C)(C)C)nn3)n2)cn1 | mouse splenic B cells | item: Angiopoietin signalling | – | 30 mg/kg, IgD-activated in vivo | baseline: vehicle, direction not given | pathway activation z-score | 1.13 |
| Cc1cc(C)nc(SCC(=O)Nc2ncc(Cc3cccc(OCc4cn(Cc5ccc(OCCN6CCOCC6)cc5)nn4)c3)s2)n1 | PC-3M-luc | colony formation, colony forming | – | 1 µM | – | inhibition | 7.2 ± 7.4% |
| CCn1cc(-c2cc(Cn3ccoc3=N)cc3c2CCN([C@@H](C)c2cc(OC)ccn2)C3=O)c(C(F)(F)F)n1 | SNU1079 | cell growth | – | 120 h | – | EC50 | > 30 µM |
| Nc1ncnc2c1ncn2[C@@H]1O[C@H](CO)[C@@H](O)[C@H]1O | activated human T cells | item: dihydroorotate | – | 30 µM | baseline: DMSO | log2 fold change | 6.1 and 6.4 and 6.5 |
| C#C[C@@]1(O)[C@@H](CO)O[C@@H](n2cc(F)c3c(N)ncnc32)[C@@H]1O | NCI60 panel | cell growth | – | mean over panel | – | TGI | -5.18 log M |
| CCN(CCO)CCCC(C)Nc1ccnc2cc(Cl)ccc12 (centres unmarked) | human PBMC | qRT-PCR, item: OASL mRNA | – | 1000 nM, together with: ssRNA | – | inhibition | -7 ± 10% |
| CC1(C)CCC(CN2CCN(c3ccc(C(=O)NS(=O)(=O)c4ccc(NCC5CCOCC5)c([N+](=O)[O-])c4)c(Oc4cnc5[nH]ccc5c4)c3)CC2)=C(c2ccc(Cl)cc2)C1 | THP-1 | annexin V/PI flow cytometry, item: annexin V+/PI+ | – | 1.6 µM, 24 h | – | late apoptotic cells | 1.8% |
| Cc1nn(-c2nc3c(F)cc(F)cc3s2)c(O)c1C(c1ccc(C(F)(F)F)cc1)c1c(C)nn(-c2nc3c(F)cc(F)cc3s2)c1O | THP1-Dual | western blot | – | 20 µM, together with: HT-DNA | baseline: DMSO | phospho-IRF3 to IRF3 ratio | 0.342 and 0.525 and 0.665 |
| CCCCN1CCN(c2ccc3[nH]c(-c4ccc5[nH]c(-c6ccc(OCC)cc6)nc5c4)nc3c2)CC1 | Malme-3M | SRB | – | 10 µM, 48 h | – | growth percent | 36% |
| C=CCn1c(=O)c2cnc(Nc3ccc(N4CCN(C)CC4)cc3)nc2n1-c1ccc2c(n1)[C@@](O)(CC)CC2 | Kuramochi | flow cytometry | – | concentration not given, G1 phase | – | γH2AX-positive cells | 27.5% |
| CC(C)(C)c1nc(-c2cccc(NS(=O)(=O)c3c(F)cccc3F)c2F)c(-c2ccnc(N)n2)s1 | A2780/CP | annexin V/PI flow cytometry | – | concentration not given, 48 h | baseline: untreated | late apoptotic cells | 0.22% |
| CC(=O)c1nn(-c2ccc(C)cc2)/c(=N/N=C(\C)c2ccc(NC(=O)c3ccccc3)cc2)s1 | MCF7 | MTT | – | 5 µM | – | cytotoxicity | 93.5% |

| Structure (SMILES) | tested on | assay | system | setting | how to read | measurement | result |
| --- | --- | --- | --- | --- | --- | --- | --- |
| C=C[C@@]1(C)CC(=O)[C@]2(O)[C@@]3(C)[C@@H](O)CCC(C)(C)[C@@H]3[C@H](O)[C@H](OC(C)=O)[C@@]2(C)O1 | MCF-10A | CellTiter-Glo | – | concentration not given | baseline: normalised, mean of replicates | viability | 96% |
| CC(=O)c1nn(-c2ccc(Cl)cc2)/c(=N/N=C(\C)c2ccc(NC(=O)c3ccc(Cl)cc3)cc2)s1 | MCF7 | – | – | 10 µM | – | viability | 22.5% |
| COc1ccc(NC(=O)c2c(Nc3ccccc3)sc(C(=O)NN=Cc3ccc(OC)c(O)c3)c2NC(C)=O)cc1 | HepG2 | annexin V-FITC/PI | – | concentration not given | – | viable cells | 84.6 ± 6.23% |
| Cc1c(C(=O)O)ccc2c3n(nc12)[C@@H]1[C@H](C3)N(CC2CC2)[C@@]2(C(=O)Nc3cc(Cl)ccc32)[C@H]1c1cccc(Cl)c1F | DK-MG | cell growth, alamarBlue | – | unbound | – | GI50 | 0.00011 µM |
| C=CC1=C(C)c2cc3[n-]c(cc4nc(cc5[n-]c(cc1n2)c(C)c5C=C)C(C)=C4CCC(=O)O)c(CCC(=O)O)c3C.[Zn+2] | SH-SY5Y | RNA-seq, item: ANKRD1 mRNA | – | 5 µM, 5 h | baseline: untreated cells | fold change | 2.5 |
| O=c1[nH]nc(OCCCc2ccc(Cl)cc2)c(NCc2cccnc2)c1Br | HEK-293T | RNA-seq GSEA, item: HALLMARK_KRAS_SIGNALING_DN | – | concentration not given | direction not given | normalized enrichment score | -1.08 |
| Nc1cccc2c1C(=O)N(C1CCC(=O)NC1=O)C2=O (centres unmarked) | bone marrow CD138+ myeloma cells | XTT | – | 1.4 µM, phenol red-free RPMI | – | viability | 40% |
| Cn1cc(-c2ccc(-c3cncc(Cl)c3N3CCC4(CCNC4=O)CC3)cc2)cn1 | COLO 205 | gene expression, microarray, item: AOC3 mRNA | – | concentration not given, 2 h | baseline: untreated cells | log2 fold change | 2.19 |
| CC(C)(C)c1cc(O)ccc1O | HepG2 | high content imaging, item: DNA structure | – | 24 h, distribution mode 2 | – | point of departure | 138 µM |
| [Cl-].[Cl-].[Os+2].c1cnc2c(c1)ccc1cccnc12.c1cnc2c(c1)ccc1cccnc12.c1cnc2c(c1)ccc1cccnc12 | SK-MEL-28 | cell growth, SRB | – | red light 633 nm, normoxia | – | TGI | 32.9 µM |
| COc1cnc2cccc(N3CCc4c(cc(Cn5ccnc5C)cc4-c4cn(C)nc4C(F)(F)F)C3=O)c2c1 | KP2 | cell growth | – | 120 h | – | EC50 | > 30 µM |
| Cc1cc(CN)cc(C)c1NC(=O)c1ccc(-c2cc(Cl)ccc2Cl)o1 | Toxoplasma gondii | parasite growth | HFF, bradyzoite, glutamine-induced | – | – | EC90 | 21.6 µM |
| O=C(/C=C/C=C/C=C/C1CCCCC1)NC1=C[C@@](O)(/C=C/C=C/C=C/C(=O)NC2=C(O)CCC2=O)[C@@H]2O[C@@H]2C1=O | TE-6 | cell growth, CellTiter-Glo | – | 78 h | – | GI50 | 23.3 µM |
| CCCCCCNc1nc(NC2CCN(C)CC2)c2cc(OC)c(OC)cc2n1 | Toxoplasma gondii | parasite growth, luciferase reporter | HFF, tachyzoite | 72 h | – | EC50 | 2.46 µM |
| NNc1nc(-c2ccc(Cl)cc2)c2c(NC(=O)c3ccccc3)nnc-2[nH]1 | Malme-3M | SRB | – | 10 µM, NCI60 single-dose screen | baseline: untreated | cell growth | 98.5% |
| CCn1cc(-c2cc(Cn3ccnc3)cc3c2CCN([C@H](c2cc(OC)ccn2)C2CC2)C3=O)c(C(F)(F)F)n1 | SBC-5 | cell growth, inhibitor | – | 120 h | – | EC50 | 28.3 µM |
| CC(C)(C)C(=O)Oc1ccc(S(=O)(=O)Nc2ccccc2C(=O)NCC(=O)O)cc1 | human peripheral blood neutrophils | NET formation | – | 500 µM, together with: MPO-ANCA immune complex, TNF-α | – | citrullinated histone H3 per neutrophil | 16.4 and 18.3 and 22.3 and 20.8 and 19 and 13.9 |
| Cn1cc(-n2cnc3c(NCc4nc5cc(Cl)c(Cl)cc5[nH]4)nc(N4CCOCC4)nc32)cn1 | MDA-MB-231 | cell viability, CellCounting-Lite | – | 2.743 nM, 37 °C | higher = more viable cells | luminescence signal | 417000 a.u. and 421000 a.u. and 429000 a.u. |
| CN1CC2(NN=C(c3ccccc3)S2)c2ccccc21 (centres unmarked) | SK-N-BE(2) and SK-N-SH neuroblastoma | MTT | – | 10 µM, 24 h | – | viability loss | ~40% |

Some of these lines once more:
| Structure (SMILES) | tested on | assay | system | setting | how to read | measurement | result |
| --- | --- | --- | --- | --- | --- | --- | --- |
| Cc1c(C(=O)O)ccc2c3n(nc12)[C@@H]1[C@H](C3)N(CC2CC2)[C@@]2(C(=O)Nc3cc(Cl)ccc32)[C@H]1c1cccc(Cl)c1F | DK-MG | cell growth, alamarBlue | – | unbound | – | GI50 | 0.00011 µM |
| C=CC1=C(C)c2cc3[n-]c(cc4nc(cc5[n-]c(cc1n2)c(C)c5C=C)C(C)=C4CCC(=O)O)c(CCC(=O)O)c3C.[Zn+2] | SH-SY5Y | RNA-seq, item: ANKRD1 mRNA | – | 5 µM, 5 h | baseline: untreated cells | fold change | 2.5 |
| O=c1[nH]nc(OCCCc2ccc(Cl)cc2)c(NCc2cccnc2)c1Br | HEK-293T | RNA-seq GSEA, item: HALLMARK_KRAS_SIGNALING_DN | – | concentration not given | direction not given | normalized enrichment score | -1.08 |
